Experimental data from different studies.
Each numbered part is a random draw from the data of one study; scales do not carry over between parts. Positions count from the first letter of the parent shown.

Sample 1
Target: ABI1, truncated, D143A, DHFR fusion (Arabidopsis thaliana)
Technique: DHFR PCA, deep sequencing
Medium: yeast
Setting: methotrexate growth selection, single substitutions
Added: (+)-ABA 58 µM
Baseline: wild-type fitted maximum
Direction: higher = stronger binding
Endpoint: relative binding score
Starting sequence: PYL1, truncated, DHFR fusion (Arabidopsis thaliana); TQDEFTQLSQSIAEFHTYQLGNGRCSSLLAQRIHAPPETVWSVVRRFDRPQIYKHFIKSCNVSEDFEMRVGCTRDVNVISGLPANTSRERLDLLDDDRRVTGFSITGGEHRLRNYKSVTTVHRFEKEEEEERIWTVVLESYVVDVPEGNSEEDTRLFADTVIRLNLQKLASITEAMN
Variant = T173E; value = -0.836%
Variant = E152I; value = 72.9%
Variant = R98F; value = 43%
Variant = Q167V; value = 73.8%
Variant = R88Y; value = 78%
Variant = L164F; value = 81.8%
Variant = V136F; value = 82.9%
Variant = R163M; value = 61.5%
Variant = D153A; value = 30.9%
Variant = Q51D; value = 61.5%
Variant = N22M; value = 89.6%
Variant = D97M; value = 86.6%
Variant = A158G; value = 47.9%
Variant = Y141F; value = 56.2%
Variant = I57Y; value = 6.62%
Variant = L29V; value = 90.4%
Variant = T106H; value = 77%
Variant = H110R; value = 16.2%
Variant = D96H; value = 44.1%
Variant = S27R; value = 56.9%

Sample 2
Target: CCND2, cyclin fold, Cln2 fusion (human)
Technique: yeast growth competition, sequencing
Medium: yeast
Setting: weak parent motif
Baseline: not given
Direction: higher = stronger binding
Endpoint: normalised enrichment score
Starting sequence: CDAN1 docking peptide (human); RGARSQLFPPTEA; partner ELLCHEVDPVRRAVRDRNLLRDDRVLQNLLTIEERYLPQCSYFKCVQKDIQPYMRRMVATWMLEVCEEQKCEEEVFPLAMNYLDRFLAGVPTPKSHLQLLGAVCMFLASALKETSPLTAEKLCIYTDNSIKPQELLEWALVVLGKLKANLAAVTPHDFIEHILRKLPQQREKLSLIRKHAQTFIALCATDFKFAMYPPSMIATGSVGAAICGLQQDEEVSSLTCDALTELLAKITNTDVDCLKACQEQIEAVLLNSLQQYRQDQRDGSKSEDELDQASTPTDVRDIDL
Variant = P10A; value = 0.46
Variant = R4A; value = -0.0476
Variant = E12A; value = 0.342
Variant = G2A; value = -0.112
Variant = P9A; value = 0.167
Variant = T11A; value = -0.0636

Sample 3
Target: UBE2G1 UBC core domain (UniProt P62253)
Sequence of UniProt P62253 (whole entry, looked up): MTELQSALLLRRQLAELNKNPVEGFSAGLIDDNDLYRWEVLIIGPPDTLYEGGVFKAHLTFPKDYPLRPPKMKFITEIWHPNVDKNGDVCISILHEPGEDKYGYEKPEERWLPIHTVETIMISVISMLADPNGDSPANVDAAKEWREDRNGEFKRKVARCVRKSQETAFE
Technique: yeast two-hybrid
Medium: yeast
Setting: mostly zero background
Baseline: not given
Direction: higher = stronger interaction
Endpoint: lacZ reporter activity
B1: UBOX5 RING domain (UniProt O94941); chain EQPGSILGPECASCKRVFSPYFKKEPVYQLPCGHLLCRPCLGEKQRSLPMTCTACQRPVASQDVLR
B2: MDM4 RING domain (UniProt O15151); chain MEDCQNLLKPCSLCEKRPRDGNIIHGRTGHLVTCFHCARRLKKAGASCPICKKEIQLVIKVF
B3: TRIM62 RING domain (UniProt Q9BVG3); chain MACSLKDELLCSICLSIYQDPVSLGCEHYFCRRCITEHWVRQEAQGARDCPECRRTFAEPALAP
B4: SYTL4 RING domain (UniProt Q96C24); chain RGSQHYSDRTCARCQESLGRLSPKTNTCRGCNHLVCRDCRIQESNGTWRCKVCAKEIELKKAT
B5: RNF121 RING domain (UniProt Q9H920); chain MPTKHLSDSVCAVCGQQIFVDVSEEGIIENTYRLSCNHVFHEFCIRGWCIVGKKQTCPYCKEKVDLKRMFS
B6: RFWD3 RING domain (UniProt Q6PCD5); chain ASMDEEEGDTCTICLEQWTNAGDHRLSALRCGHLFGYRCISTWLKGQVRKCPQCNKKARHSDIVV
B7: MAP3K1 RING domain (UniProt Q13233); chain NSIKDEEEQMCPICLLGMLDEESLTVCEDGCRNKLHHHCMSIWAEECRRNREPLICPLCRSKWRSHDFYS
B8: DZIP3 RING domain (UniProt Q86Y13); chain PDEEEEEEEPCVICHENLSPENLSVLPCAHKFHAQCIRPWLMQQGTCPTCRLHVLLPEEFP
B9: ZMIZ2 RING domain (UniProt Q8NF64); chain GTIPGTPGPNGEDGVEQTAIKVSLKCPITFRRIQLPARGHDCRHIQCFDLESYLQLNCERGTWRCPVCNKTALLEGLEVDQYMLGILIYIQNSDYEEITIDPTCSWK
B10: RBCK1 RING domain (UniProt Q9BYM8); chain SLVLNTEPAECPVCYSVLAPGEAVVLRECLHTFCRECLQGTIRNSQEAEVSCPFIDNTYSCSGKLLEREIK
Molecule = B1 (UBOX5 RING domain); value = 0
Molecule = B2 (MDM4 RING domain); value = 0
Molecule = PEDRESLKSACVVCLSSFKSCVFLECGHVCSCTECYRALPEPKKCPICRQAITRVIPLY (MUL1 RING domain (UniProt Q969V5)); value = 0
Molecule = B3 (TRIM62 RING domain); value = 0
Molecule = KETIKKTTKPCPRCHVPVEKNGGCMHMKCPQPQCRLEWCWNCGCEWNRVCMG (PRKN RING domain (UniProt O60260)); value = 0
Molecule = AMYLQENGIDCPKCKFSYALARGGCMHFHCTQCRHQFCSGCYNAFYAKNKC (RNF31 RING domain (UniProt Q96EP0)); value = 0
Molecule = B4 (SYTL4 RING domain); value = 0
Molecule = B5 (RNF121 RING domain); value = 0
Molecule = GSDDEEIPFKCFICRQSFQNPVVTKCRHYFCESCALQHFRTTPRCYVCDQQTNGVFNPA (RNF113A RING domain (UniProt O15541)); value = 0
Molecule = B6 (RFWD3 RING domain); value = 0
Molecule = B7 (MAP3K1 RING domain); value = 0
Molecule = AVPSGLEENLCKICMDSPIDCVLLECGHMVTCTKCGKRMNECPICRQYVIRAVHVF (RFFL RING domain (UniProt Q8WZ73)); value = 0
Molecule = B8 (DZIP3 RING domain); value = 0
Molecule = B9 (ZMIZ2 RING domain); value = 0
Molecule = KLRKLKEAMLCMVCCEEEINSTFCPCGHTVCCESCAAQLQSCPVCRSRVEHVQHVY (MYLIP RING domain (UniProt Q8WY64)); value = 0
Molecule = B10 (RBCK1 RING domain); value = 0

Sample 4
Target: Ras GTPase-activating protein-binding protein 1, RRM domain (G3BP1, Homo sapiens, UniProt Q13283)
Sequence of UniProt Q13283 (whole entry, looked up): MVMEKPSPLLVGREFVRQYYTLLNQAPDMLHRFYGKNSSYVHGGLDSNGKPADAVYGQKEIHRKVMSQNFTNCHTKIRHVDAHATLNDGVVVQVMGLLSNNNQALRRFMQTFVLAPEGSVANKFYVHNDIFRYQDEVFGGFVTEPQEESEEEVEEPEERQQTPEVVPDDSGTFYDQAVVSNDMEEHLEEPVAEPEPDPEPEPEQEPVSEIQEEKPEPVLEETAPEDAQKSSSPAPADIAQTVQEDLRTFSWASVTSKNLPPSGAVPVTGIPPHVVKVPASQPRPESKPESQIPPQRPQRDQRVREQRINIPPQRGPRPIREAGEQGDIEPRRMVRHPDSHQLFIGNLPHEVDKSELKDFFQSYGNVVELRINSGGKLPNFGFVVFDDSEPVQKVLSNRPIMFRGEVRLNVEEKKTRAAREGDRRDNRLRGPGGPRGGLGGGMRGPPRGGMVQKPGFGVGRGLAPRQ
Technique: RNA Bind-n-Seq
Molecule type: RNA
Medium: in vitro
Tested at: 1 µM
Setting: whole 134-nt RNA, ends assumed
Added: 150 mM KCl
Baseline: input library
Direction: higher = stronger binding
Endpoint: log2 enrichment
Constant ends, left off below: GGGAGUUCUACAGUCCGACGAUC … UGGAAUUCUCGGGUGUCAAGG
Oligonucleotide = AAGUCCUGUGCUACACAUCGUAUGUACCGAAUCGGUUUUUUUGGAAAGGUUUUUGGAAAGUAUUAUGUUACGCCGUUCGGAUCUGCACUU; value = -0.428
Oligonucleotide = UGGCCCUGGUGGCAUGCGGGGAGGAAGAGGUGGCCUCAUGGAUCGUGGUGGUCCCGGUGGAAUGUUCAGGGGUGGCCGUGGUGGAGACAG; value = 1.96
Oligonucleotide = UCCUGUGCUACACAUCGUAUGUACCGAAUCGGGUUUUUUGGUUUUUUGGGGUUUUUUGGAAAGUAUUAUGUUACGCCGUUCGGAUCUGCA; value = -0.0591
Oligonucleotide = UCAAGUCCUGUGCUACACAUCGUAUGUACCGAAUCGGGUUUGGGAGGGAAAGGGAAAGUAUUAUGUUACGCCGUUCGGAUCUGCACUUCC; value = 0.753
Oligonucleotide = CCUGUGCUACACAUCGUAUGUACCGAAUCGGGGCCCCCCGGGGCCCCCCGGCCCCCCGGGAAAGUAUUAUGUUACGCCGUUCGGAUCUGC; value = -0.616
Oligonucleotide = GCAGGAAGUAAAAACAAAUGGAAAUGCUUCGGAUAAAAGCAGGGGUGGGGGUUGCUAAGGAAAGGGUGGGAUGGGAGUGGGUAAAGAGUU; value = 1.22
Oligonucleotide = UCCUGUGCUACACAUCGUAUGUACCGAAUCGGCCCCCCGGGCCCCCCGGGGCCCCCCGGGAAAGUAUUAUGUUACGCCGUUCGGAUCUGC; value = -0.496
Oligonucleotide = UCCUGUGCUACACAUCGUAUGUACCGAAUCAAAUUUUUAAAUUUUUUUAAAUUUUUAAAAAAGUAUUAUGUUACGCCGUUCGGAUCUGCA; value = -0.207
Oligonucleotide = UCAAGUCCUGUGCUACACAUCGUAUGUACCGAAUCGGAAGGGGAAGGGGAAGGGGAAAGUAUUAUGUUACGCCGUUCGGAUCUGCACUUC; value = 0.645
Oligonucleotide = UCCUGUGCUACACAUCGUAUGUACCGAAUCGGGGUUUUUUGGUUUUUUGGUUUUUUGGGGAAAGUAUUAUGUUACGCCGUUCGGAUCUGC; value = -0.251
Oligonucleotide = CACAGACAACACACACCCACACAGACACAGAGGGAAGGGGUUGGGAUGGGGACAGGGUGCACAGCAGGGCGGGGUAGGACCCCAGCCCCU; value = -0.173
Oligonucleotide = AAGUCCUGUGCUACACAUCGUAUGUACCGAAUCGGGUUUUGGGUUUUGGUUUUGGGAAAGUAUUAUGUUACGCCGUUCGGAUCUGCACUU; value = -0.238
Oligonucleotide = UGUCUUUCCUGGUGACUAGGAUGUCGUCGGAGGAGGACAAGAGCGUGGAGCAGCCGCAGCCGCCGCCACCACCCCCCGAGGAGCCUGGAG; value = -0.541
Oligonucleotide = CCUCAAGUCCUGUGCUACACAUCGUAUGUACCGAAUCGGAAGGGAAGGGAAGGAAAGUAUUAUGUUACGCCGUUCGGAUCUGCACUUCCA; value = -0.301

Sample 5
Target: Histone acetyltransferase KAT6A, winged helix 1, GST fusion (KAT6A, Homo sapiens, UniProt Q92794, residues 1-85)
Technique: protein binding microarray
Molecule type: double-stranded DNA, one strand shown
Medium: in vitro
Tested at: not given
Setting: 8-mer, flanks averaged, mean of 2 arrays, mostly near background
Baseline: not given
Direction: higher = stronger binding
Endpoint: E-score
Target sequence (chain): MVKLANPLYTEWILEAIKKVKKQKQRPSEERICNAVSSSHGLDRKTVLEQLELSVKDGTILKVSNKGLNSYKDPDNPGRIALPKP
Oligonucleotide = AGGGGAGA; value = -0.00605
Oligonucleotide = CAACGGGG; value = 0.0804
Oligonucleotide = AGGAGAAA; value = -0.183
Oligonucleotide = CGAATAGC; value = -0.0983
Oligonucleotide = CTCACGAC; value = 0.0175
Oligonucleotide = AGCCTCCC; value = 0.0155
Oligonucleotide = TTCCAGAA; value = -0.0823
Oligonucleotide = CTCTCTGC; value = -0.0906
Oligonucleotide = AGCTAAAC; value = -0.117
Oligonucleotide = CTGACCCA; value = -0.22
Oligonucleotide = GATCAGAA; value = -0.131
Oligonucleotide = ATCGGACG; value = 0.112
Oligonucleotide = GACATGCA; value = -0.208
Oligonucleotide = AATAGTTC; value = -0.053
Oligonucleotide = AAATCCTG; value = -0.286
Oligonucleotide = AGATGTGC; value = -0.064
Oligonucleotide = CATCAGAC; value = -0.0892
Oligonucleotide = CACAGGCA; value = -0.237
Oligonucleotide = AATTACCG; value = 0.219
Oligonucleotide = TAAGAGTA; value = -0.207
Oligonucleotide = AACATCAC; value = -0.111
Oligonucleotide = CTCGCGTA; value = 0.21
Oligonucleotide = AAAAATTA; value = 0.0725
Oligonucleotide = AGGTTCTG; value = -0.0341
Oligonucleotide = ACTTGGAG; value = -0.123

For quick reference, copied from above (sample 1):
Variant = A158G; value = 47.9%
Variant = L164F; value = 81.8%
Variant = R88Y; value = 78%
Variant = Q51D; value = 61.5%
Variant = H110R; value = 16.2%
Variant = R98F; value = 43%
Variant = D97M; value = 86.6%
